# Measurements gathered from unrelated publications.
# Protocols differ between the studies behind these lines. ± gives the spread as reported.
# CSNK1A1: Casein kinase I isoform alpha (CSNK1A1, Homo sapiens, UniProt P48729)
# Chain of UniProt P48729 (whole entry, looked up): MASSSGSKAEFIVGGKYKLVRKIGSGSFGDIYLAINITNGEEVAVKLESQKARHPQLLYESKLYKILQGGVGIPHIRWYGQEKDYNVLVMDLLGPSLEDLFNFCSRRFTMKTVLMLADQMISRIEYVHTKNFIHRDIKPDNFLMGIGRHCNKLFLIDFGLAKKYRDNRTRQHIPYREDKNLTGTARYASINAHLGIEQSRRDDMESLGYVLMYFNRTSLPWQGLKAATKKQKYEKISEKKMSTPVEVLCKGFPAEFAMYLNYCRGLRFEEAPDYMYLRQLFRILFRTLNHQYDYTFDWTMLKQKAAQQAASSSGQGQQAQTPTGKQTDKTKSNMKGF
# IDO1: Indoleamine 2,3-dioxygenase 1 (IDO1, Homo sapiens, UniProt P14902)
# Chain of UniProt P14902 (whole entry, looked up): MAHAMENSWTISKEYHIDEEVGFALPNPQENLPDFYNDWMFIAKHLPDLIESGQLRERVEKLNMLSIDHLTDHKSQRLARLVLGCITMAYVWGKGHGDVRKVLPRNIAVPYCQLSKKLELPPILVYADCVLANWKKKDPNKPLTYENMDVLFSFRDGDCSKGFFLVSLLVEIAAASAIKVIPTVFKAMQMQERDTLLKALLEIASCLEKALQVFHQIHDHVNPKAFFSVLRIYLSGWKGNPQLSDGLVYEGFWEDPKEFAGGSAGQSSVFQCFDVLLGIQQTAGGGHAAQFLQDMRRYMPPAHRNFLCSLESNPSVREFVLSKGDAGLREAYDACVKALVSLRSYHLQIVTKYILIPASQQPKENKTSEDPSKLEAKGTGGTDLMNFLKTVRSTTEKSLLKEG
# Gria2/Glutamate receptor 3: Gria2/Glutamate receptor 3 (Rattus norvegicus, UniProt P19491+P19492)
# Chain of UniProt P19491 (whole entry, looked up): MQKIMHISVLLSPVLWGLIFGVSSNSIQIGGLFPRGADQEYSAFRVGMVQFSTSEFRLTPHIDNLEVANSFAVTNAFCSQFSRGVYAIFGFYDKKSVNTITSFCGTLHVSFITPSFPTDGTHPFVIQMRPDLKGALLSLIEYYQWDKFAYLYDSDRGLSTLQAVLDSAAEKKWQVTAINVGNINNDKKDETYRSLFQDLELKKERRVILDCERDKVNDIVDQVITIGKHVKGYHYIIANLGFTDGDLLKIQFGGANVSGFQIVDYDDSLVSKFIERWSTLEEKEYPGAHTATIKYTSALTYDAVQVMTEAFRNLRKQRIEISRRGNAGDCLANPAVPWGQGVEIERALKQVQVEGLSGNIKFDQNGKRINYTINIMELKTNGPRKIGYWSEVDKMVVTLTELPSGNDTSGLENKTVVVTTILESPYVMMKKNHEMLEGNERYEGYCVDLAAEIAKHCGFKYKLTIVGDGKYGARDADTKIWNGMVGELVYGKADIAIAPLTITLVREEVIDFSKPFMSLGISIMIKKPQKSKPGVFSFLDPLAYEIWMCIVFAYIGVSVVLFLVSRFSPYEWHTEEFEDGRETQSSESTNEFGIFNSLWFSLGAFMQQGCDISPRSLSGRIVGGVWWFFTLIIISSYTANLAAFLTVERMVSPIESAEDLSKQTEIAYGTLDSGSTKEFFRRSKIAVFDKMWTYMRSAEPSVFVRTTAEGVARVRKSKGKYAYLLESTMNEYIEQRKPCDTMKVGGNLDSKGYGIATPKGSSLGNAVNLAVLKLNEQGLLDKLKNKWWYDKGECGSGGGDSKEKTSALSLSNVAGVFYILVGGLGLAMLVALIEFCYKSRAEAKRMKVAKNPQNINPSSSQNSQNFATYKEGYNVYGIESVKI
# Chain of UniProt P19492 (whole entry, looked up): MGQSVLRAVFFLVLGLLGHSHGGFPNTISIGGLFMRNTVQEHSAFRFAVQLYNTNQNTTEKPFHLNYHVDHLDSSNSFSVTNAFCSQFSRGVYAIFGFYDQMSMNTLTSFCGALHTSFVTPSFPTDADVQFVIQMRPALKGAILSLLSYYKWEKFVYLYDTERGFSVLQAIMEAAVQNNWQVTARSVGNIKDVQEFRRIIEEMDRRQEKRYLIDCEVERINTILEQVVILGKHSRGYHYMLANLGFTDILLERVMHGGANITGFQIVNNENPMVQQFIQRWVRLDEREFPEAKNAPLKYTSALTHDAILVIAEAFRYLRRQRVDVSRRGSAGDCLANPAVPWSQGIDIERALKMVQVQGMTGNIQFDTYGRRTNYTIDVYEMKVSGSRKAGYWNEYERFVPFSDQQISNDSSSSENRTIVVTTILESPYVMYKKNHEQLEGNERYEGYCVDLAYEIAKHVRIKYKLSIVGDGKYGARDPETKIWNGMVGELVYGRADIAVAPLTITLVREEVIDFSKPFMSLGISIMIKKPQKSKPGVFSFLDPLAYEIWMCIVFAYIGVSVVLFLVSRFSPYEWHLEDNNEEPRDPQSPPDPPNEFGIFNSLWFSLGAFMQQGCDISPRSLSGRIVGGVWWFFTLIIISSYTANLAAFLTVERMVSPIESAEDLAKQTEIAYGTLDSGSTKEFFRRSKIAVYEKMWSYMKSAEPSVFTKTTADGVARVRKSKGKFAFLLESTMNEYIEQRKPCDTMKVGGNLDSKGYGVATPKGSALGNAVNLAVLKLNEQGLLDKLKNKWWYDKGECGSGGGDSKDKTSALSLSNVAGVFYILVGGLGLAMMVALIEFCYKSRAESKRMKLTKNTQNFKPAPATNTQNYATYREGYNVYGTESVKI
# MKNK1: MAP kinase-interacting serine/threonine-protein kinase 1 (MKNK1, Homo sapiens, UniProt Q9BUB5)
# Chain of UniProt Q9BUB5 (whole entry, looked up): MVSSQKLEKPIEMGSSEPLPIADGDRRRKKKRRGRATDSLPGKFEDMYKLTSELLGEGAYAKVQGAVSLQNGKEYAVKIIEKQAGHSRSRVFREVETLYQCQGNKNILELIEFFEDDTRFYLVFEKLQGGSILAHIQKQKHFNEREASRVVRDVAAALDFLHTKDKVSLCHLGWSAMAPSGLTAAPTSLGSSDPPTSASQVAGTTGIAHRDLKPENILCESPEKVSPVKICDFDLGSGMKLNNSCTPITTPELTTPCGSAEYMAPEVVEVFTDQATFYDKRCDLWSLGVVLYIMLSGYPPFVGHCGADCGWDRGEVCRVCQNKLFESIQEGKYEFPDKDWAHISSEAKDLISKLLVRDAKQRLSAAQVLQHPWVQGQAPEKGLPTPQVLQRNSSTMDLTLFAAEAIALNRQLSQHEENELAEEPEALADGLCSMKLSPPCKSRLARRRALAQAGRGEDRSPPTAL
# HDAC7: Histone deacetylase 7 (HDAC7, Homo sapiens, UniProt Q8WUI4)
# Chain of UniProt Q8WUI4 (whole entry, looked up): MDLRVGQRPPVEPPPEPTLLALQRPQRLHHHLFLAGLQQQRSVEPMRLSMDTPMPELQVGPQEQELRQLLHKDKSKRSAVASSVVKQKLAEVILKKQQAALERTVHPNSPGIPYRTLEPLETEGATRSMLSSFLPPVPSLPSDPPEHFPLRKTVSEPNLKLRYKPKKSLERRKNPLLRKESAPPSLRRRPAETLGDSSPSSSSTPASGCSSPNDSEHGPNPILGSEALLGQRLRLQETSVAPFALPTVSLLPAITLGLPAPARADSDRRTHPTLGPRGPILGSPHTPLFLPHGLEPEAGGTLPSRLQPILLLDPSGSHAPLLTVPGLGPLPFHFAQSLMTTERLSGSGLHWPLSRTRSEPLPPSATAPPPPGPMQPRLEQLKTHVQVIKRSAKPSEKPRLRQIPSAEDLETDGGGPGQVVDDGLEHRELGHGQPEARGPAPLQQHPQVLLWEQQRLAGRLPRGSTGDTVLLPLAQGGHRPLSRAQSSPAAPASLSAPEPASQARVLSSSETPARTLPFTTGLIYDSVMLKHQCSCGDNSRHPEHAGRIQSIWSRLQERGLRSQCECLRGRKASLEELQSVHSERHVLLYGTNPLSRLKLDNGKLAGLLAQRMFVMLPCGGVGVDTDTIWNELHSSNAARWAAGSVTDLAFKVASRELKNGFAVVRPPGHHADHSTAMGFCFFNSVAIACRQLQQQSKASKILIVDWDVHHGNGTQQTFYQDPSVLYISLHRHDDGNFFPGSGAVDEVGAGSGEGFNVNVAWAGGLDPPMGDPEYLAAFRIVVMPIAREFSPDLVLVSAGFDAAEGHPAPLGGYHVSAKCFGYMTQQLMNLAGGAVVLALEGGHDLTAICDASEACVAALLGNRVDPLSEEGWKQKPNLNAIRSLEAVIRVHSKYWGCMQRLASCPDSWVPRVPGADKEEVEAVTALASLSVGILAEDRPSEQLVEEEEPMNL
# CHRM1: Muscarinic acetylcholine receptor M1 (CHRM1, Homo sapiens, UniProt P11229)
# Chain of UniProt P11229 (whole entry, looked up): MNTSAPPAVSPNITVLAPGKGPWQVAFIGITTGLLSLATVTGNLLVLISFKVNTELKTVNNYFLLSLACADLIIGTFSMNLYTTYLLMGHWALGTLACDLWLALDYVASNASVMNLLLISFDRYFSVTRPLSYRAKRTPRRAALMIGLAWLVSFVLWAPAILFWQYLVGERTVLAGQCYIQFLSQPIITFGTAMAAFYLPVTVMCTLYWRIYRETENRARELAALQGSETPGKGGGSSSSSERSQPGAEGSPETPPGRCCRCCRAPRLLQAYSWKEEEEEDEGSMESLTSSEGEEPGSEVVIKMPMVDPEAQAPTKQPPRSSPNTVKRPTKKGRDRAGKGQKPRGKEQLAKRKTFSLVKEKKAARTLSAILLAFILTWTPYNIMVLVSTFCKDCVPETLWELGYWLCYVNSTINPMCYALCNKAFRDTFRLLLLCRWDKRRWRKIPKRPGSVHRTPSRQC
# Chain of UniProt O76083 (whole entry, looked up): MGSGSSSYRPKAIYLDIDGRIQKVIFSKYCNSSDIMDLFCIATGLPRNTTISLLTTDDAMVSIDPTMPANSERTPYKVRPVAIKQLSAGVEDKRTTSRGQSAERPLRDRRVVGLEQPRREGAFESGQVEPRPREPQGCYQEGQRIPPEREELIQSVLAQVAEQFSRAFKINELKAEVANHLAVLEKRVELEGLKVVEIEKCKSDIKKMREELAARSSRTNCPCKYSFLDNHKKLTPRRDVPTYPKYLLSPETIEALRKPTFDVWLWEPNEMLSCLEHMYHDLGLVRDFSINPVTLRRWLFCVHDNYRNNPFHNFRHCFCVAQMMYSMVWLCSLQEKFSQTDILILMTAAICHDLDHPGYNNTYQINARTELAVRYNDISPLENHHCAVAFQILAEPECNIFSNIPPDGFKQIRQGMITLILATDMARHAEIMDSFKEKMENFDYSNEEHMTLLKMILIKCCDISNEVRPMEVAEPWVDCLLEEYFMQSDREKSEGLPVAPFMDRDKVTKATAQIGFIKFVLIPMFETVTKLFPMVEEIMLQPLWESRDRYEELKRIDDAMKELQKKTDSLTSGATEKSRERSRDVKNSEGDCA
Compound,target,test,system,conditions,IC50
Cc1nn(-c2cccc(N)c2)c(=O)c2cnc(Nc3ccc(N4CCNCC4)cc3)nc12,CSNK1A1,"enzyme activity, inhibitor",,,> 10 µM
Fc1ccc(Nc2nc(NC3CCCCC3)c3cc(Br)ccc3n2)cc1F,"ADRB2 (Homo sapiens, UniProt P07550, L155C)","β-arrestin2 recruitment, antagonist, BRET",HEK293,"mutant L155C, added: isoprenaline 1 µM",0.2 µM
COC(=O)c1ccc(OC)c(O)c1-c1c(C(=O)OC)ccc(OC)c1O,"TLR2 (Homo sapiens, UniProt O60603)","reporter gene, inhibitor, SEAP reporter",HEK-Blue hTLR2,"24 h, added: Pam3CSK4 100 ng/mL",> 100 µM
CCCCCCCC/C=C\CCCCCCCC(=O)N[C@H](CCCCN)C(=O)O,"glycine transporter 2 (Xenopus tropicalis, UniProt A0A7D9NK84)",[3H]glycine uptake,HEK293F,,239 µM
COc1cccc(CNc2nc(NC3CCN(Cc4cccc(C(=O)O)c4)CC3)c3nc[nH]c3n2)c1,"IPMK (Homo sapiens, UniProt Q8NFU5)","enzyme activity, inhibitor",,,24 µM
Cc1oc(C)c(-c2ccc(N(CC(C)C)CC(C)C)c(NC(=O)Nc3ccc(B(O)O)cc3)c2)c1C(=O)O,IDO1,"enzyme activity, inhibitor, recombinant enzyme, item: kynurenine",,"20 min, 2% DMSO, added: L-tryptophan",53 ± 6 µM
COC(=O)Cc1cc2c(cc1C(=O)c1ccccc1Cl)OCO2,Gria2/Glutamate receptor 3,"ion current, patch clamp",,,5.31 µM
N[C@@H](CCC(=O)N[C@@H](CS[Se]Cc1ccc(-c2cccc(C(O)c3ccc(Cl)c(Cl)c3)c2)cc1)C(=O)NCC(=O)O)C(=O)O (stereo partly shown),"PTPN5 (Homo sapiens, UniProt P54829)","phosphatase activity, inhibitor",,"added: pNPP, no glutathione",0.152 µM
CN1CC[C@@H](COc2cnc(C#N)cc2-c2ccn3nc(NC(=O)C4CC4)cc3c2)C1,"SIK3 (Homo sapiens, UniProt Q9Y2K2)","enzyme activity, inhibitor",,,2.05 µM
CCn1nc(Cl)c2c1-c1cnc(N)c(c1)O[C@H](C)c1cc(F)ccc1-c1nn(C)cc1C2,"EPHA6 (Homo sapiens, UniProt Q9UF33)","enzyme activity, inhibitor, radiometric",,,0.115 µM
Nc1ncc(-c2cc(-c3cnn(CC(F)(F)F)c3)ncc2F)nc1C(=O)NC1CNCC(F)C1 (stereo not shown),MKNK1,"enzyme activity, inhibitor, radiometric",,,0.348 µM
CCCNCC(O)COc1ccccc1C(=O)CCc1ccccc1 (stereo not shown),"PKD2L1 (Homo sapiens, UniProt Q9P0L9, F514A)",ion current,,,1.3 µM
C#CCCn1nc(C)c2c(Cl)c(C(=O)NCC3CC(C)=NO3)cnc21 (stereo not shown),"MDH2 (Sus scrofa, UniProt P00346)","enzyme activity, reporter counter-screen",,native enzyme,> 63 µM
Cc1cc(NC2CCN(C)CC2)ccc1-c1cc2c(N3CCC[C@H](C(=O)NCc4ccc(OC(F)(F)F)cc4)C3)ncnc2[nH]1,"MAPKAPK2 (Homo sapiens, UniProt P49137)","enzyme activity, inhibitor, mobility shift",,,> 8 µM
Cc1ccc(-c2c3c([nH]c(=O)c2C#N)C(C(C)C)CCC3)cc1 (stereo not shown),"PDE9A (Homo sapiens, UniProt O76083)","enzyme activity, inhibitor, radiometric",,,0.16 µM
O=C(/C=C/c1ccc(O)cc1)c1ccc(O)cc1,mushroom tyrosinase,"enzyme activity, inhibitor",,"10 min, added: L-tyrosine",24 µg/mL
COC(=O)Cc1cc2c(cc1C(=O)c1cccc(I)c1)OCO2,Gria2/Glutamate receptor 3,"ion current, antagonist, patch clamp",,,5.89 µM
COc1ccc(CNC(=O)c2cnc3c(c(C)nn3C)c2Cl)cc1,"60 kDa heat shock protein, mitochondrial (Homo sapiens, UniProt P10809)","ATPase activity, inhibitor",,,> 250 µM
COc1cc2c(c(OC)c1OC)-c1c(cc(OC)c(OC)c1OC)C[C@H](C)[C@H](C)C2,"CES1 (Homo sapiens, UniProt P23141)","enzyme activity, inhibitor",,,4 µM
Cn1cc(-c2ccc3[nH]c4nccc(N[C@H]5CC[C@H](N6CCOCC6)CC5)c4c3c2)cn1,"PIM1 (Homo sapiens, UniProt P11309)","enzyme activity, inhibitor, radiometric",,,0.053 µM
CC(C)(C)NC(=O)CC(NC(=O)CCc1ccccc1)C(=O)NCCNC(=O)c1ccc(-c2ccccc2)cc1 (stereo not shown),"Proteasome component C5/PSMB8 (Homo sapiens, UniProt P20618+P28062)","enzyme activity, inhibitor",,immunoproteasome β5i,> 100 µM
Cc1cc(C)c(S(=O)(=O)N(CC(=O)O)c2ccc(Nc3ccnc(N4CCCC4)n3)cc2)c(C)c1,"Aurora kinase B (AURKB, Homo sapiens, UniProt Q96GD4)","enzyme activity, inhibitor",,,> 100 µM
CCN(CC)CC(=O)Nc1cccc(-n2cc(-c3ccc4ccc(-c5cn(-c6cccc(NC(=O)CN(CC)CC)c6)nn5)cc4c3)nn2)c1,MKNK1,"enzyme activity, inhibitor",,,> 10 µM
O=C(O)Cc1cc2c(cc1C(=O)c1ccccc1Cl)OCO2,Gria2/Glutamate receptor 3,"ion current, patch clamp",,,4.44 µM
Cc1oc(C)c(-c2ccc(N(CC(C)C)CC(C)C)c(NC(=O)Nc3ccc4c(c3)B(O)OC4)c2)c1C(=O)O,IDO1,"enzyme activity, inhibitor, recombinant enzyme, item: kynurenine",,"20 min, 2% DMSO, added: L-tryptophan",27 ± 10 µM
O=C1CCC(N2C(=O)c3ccc(N4CC(C(=O)N5CC(CCN6CCC(CNC(=O)c7cccc(-c8noc(C(F)(F)F)n8)c7)(c7nc(-c8ccccc8)cs7)CC6)C5)C4)cc3C2=O)C(=O)N1 (stereo not shown),HDAC7,"enzyme activity, inhibitor",,,0.31 µM
O=C(CCc1ccc(CNC(C(=O)OC2CCCC2)C2CCCCC2)cn1)NO (stereo not shown),HDAC7,"enzyme activity, inhibitor",,,> 10 µM
CCc1ccc(/N=C2\C(=O)N(Cc3ccc([N+](=O)[O-])cc3)c3ccccc32)cc1,"PIK3CA (Homo sapiens, UniProt P42336)","enzyme activity, inhibitor, ADP detection",,,0.0197 µM
c1ccc(-c2n[nH]cc2-c2ccnc3ccccc23)nc1,CSNK1A1,"enzyme activity, inhibitor, ADP-Glo kinase",,added: ATP 10 µM,1 µM
CCCCCCCCCCCCCCN(O)C(=O)CCCCC[C@@H]1NC(=O)[C@H]([C@@H](C)CC)NC(=O)[C@H](Cc2ccccc2C(F)(F)F)NC(=O)CCSCc2cccc(n2)CSCCCNC1=O,HDAC7,"enzyme activity, inhibitor, fluorogenic",,,> 30 µM
O=C(Cc1ccc(OCc2ccccc2)cc1)NC1(C(=O)O)CCN(C(=O)c2ccc(-c3cccc(Cl)c3)cc2)CC1,CHRM1,"IP-1 accumulation, antagonist",,,> 10 µM
COC(=O)Cc1cc2c(cc1C(=O)c1ccccc1I)OCO2,Gria2/Glutamate receptor 3,"ion current, antagonist, patch clamp",,,6.03 µM
O=C(CCNC(=O)CNC(=O)CC(c1ccccc1)(c1ccccc1)c1ccccc1)NCC1CCN(C(=O)c2ccc(F)cc2)CC1,CHRM1,"ligand displacement, radioligand",,cell membranes,> 30 µM
CC1CCC2C(C)C(OC(=O)CCC(=O)OCCOCCOC(=O)N3CCC(Nc4ccc(S(=O)(=O)NC(=O)c5ccc(N6CCN(CC7=C(c8ccc(Cl)cc8)CC(C)(C)CC7)CC6)cc5Oc5cnc6[nH]ccc6c5)cc4[N+](=O)[O-])CC3)OC3OC4(C)CCC1C32OO4 (stereo not shown),"BCL2 (Homo sapiens, UniProt P10415)","ligand displacement, FP",,,0.812 µM

# Some of these lines once more:
Compound,target,test,system,conditions,IC50
Fc1ccc(Nc2nc(NC3CCCCC3)c3cc(Br)ccc3n2)cc1F,"ADRB2 (Homo sapiens, UniProt P07550, L155C)","β-arrestin2 recruitment, antagonist, BRET",HEK293,"mutant L155C, added: isoprenaline 1 µM",0.2 µM
COC(=O)c1ccc(OC)c(O)c1-c1c(C(=O)OC)ccc(OC)c1O,"TLR2 (Homo sapiens, UniProt O60603)","reporter gene, inhibitor, SEAP reporter",HEK-Blue hTLR2,"24 h, added: Pam3CSK4 100 ng/mL",> 100 µM
CCCCCCCC/C=C\CCCCCCCC(=O)N[C@H](CCCCN)C(=O)O,"glycine transporter 2 (Xenopus tropicalis, UniProt A0A7D9NK84)",[3H]glycine uptake,HEK293F,,239 µM
COc1cccc(CNc2nc(NC3CCN(Cc4cccc(C(=O)O)c4)CC3)c3nc[nH]c3n2)c1,"IPMK (Homo sapiens, UniProt Q8NFU5)","enzyme activity, inhibitor",,,24 µM
